Published values of several laboratories.
Numbered parts are unrelated; each lists some results of a single study.

Set 1
Target: Histone acetyltransferase KAT6A, both winged helices, GST fusion (KAT6A, Homo sapiens, UniProt Q92794, residues 1-181)
Technique: protein binding microarray
Molecule type: double-stranded DNA, one strand shown
Sample: in vitro
Concentration: not given
Setting: 8-mer, flanks averaged, mean of 2 arrays, mostly near background
Relative to: not given
Direction: higher = stronger binding
Residues (chain): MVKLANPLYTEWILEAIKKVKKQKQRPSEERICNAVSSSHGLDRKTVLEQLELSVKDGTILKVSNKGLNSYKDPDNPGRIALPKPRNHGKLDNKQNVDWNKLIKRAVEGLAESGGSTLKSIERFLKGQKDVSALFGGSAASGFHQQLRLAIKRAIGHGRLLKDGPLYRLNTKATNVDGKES
| Oligonucleotide | E-score |
| --- | --- |
| ATGCGCCG | 0.338 |
| CCGTGTCA | 0.187 |
| CTTGAGGC | -0.0082 |
| ACTATTCT | -0.127 |
| CATGGTAC | -0.0645 |
| GATGACAC | -0.0281 |
| GTTCGCCA | -0.0123 |
| ACGGACTG | 0.127 |
| ACACCCAT | -0.0542 |
| GGAGCTTA | -0.0641 |
| ATATATGC | 0.00625 |
| CCCAGTTA | -0.13 |
| CGGAGTCA | 0.158 |
| GCTAAGTA | -0.114 |
| ACTTCGCA | -0.0177 |
| ATAGTGCA | 0.0282 |
| CTCGAGGA | -0.194 |
| TAGAGTCA | 0.0059 |
| CTTTGGTA | -0.0465 |
| GTGGCAGA | -0.161 |

Set 2
Target: Protein C-ets-1 (ETS1, Homo sapiens, UniProt P14921, residues 1-441, K379A, full length assumed)
Technique: protein-binding microarray
Molecule type: double-stranded DNA, one strand shown
Sample: in vitro
Concentration: not given
Setting: k-mer, scored over probes, only values ≥0.25
Direction: higher = stronger binding
Construct (chain): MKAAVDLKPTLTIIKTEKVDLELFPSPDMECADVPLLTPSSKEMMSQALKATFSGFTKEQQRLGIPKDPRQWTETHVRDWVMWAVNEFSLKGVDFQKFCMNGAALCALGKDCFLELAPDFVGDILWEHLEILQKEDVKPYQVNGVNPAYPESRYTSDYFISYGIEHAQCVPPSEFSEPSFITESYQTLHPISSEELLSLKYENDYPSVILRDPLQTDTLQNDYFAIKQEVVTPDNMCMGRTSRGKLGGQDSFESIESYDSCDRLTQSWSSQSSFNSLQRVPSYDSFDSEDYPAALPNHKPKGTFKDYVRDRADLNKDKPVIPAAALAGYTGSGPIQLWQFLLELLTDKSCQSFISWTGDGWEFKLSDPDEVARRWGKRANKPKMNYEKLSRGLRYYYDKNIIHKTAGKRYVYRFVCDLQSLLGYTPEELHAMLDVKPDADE
| Oligonucleotide | E-score |
| --- | --- |
| CCGGTCAC | 0.322 |
| ACCGACGC | 0.268 |
| ATCGTTAG | 0.254 |
| CCGGCGCG | 0.376 |
| GATGTAAC | 0.254 |
| ATCCATAC | 0.253 |
| ACACCGGA | 0.405 |
| ATAACATG | 0.271 |
| CGGTCATC | 0.268 |
| CCGGTACC | 0.466 |
| ACCGCCAA | 0.274 |
| CGTCGTTC | 0.33 |
| CCGGCCCG | 0.254 |
| ACCGGTTA | 0.479 |
| ACATACTA | 0.292 |
| CGACACGC | 0.281 |
| CCAACCGG | 0.38 |
| GTACGGTA | 0.257 |

Set 3
Target: Interferon regulatory factor 5, full length, phosphomimetic (IRF5, Homo sapiens, UniProt Q13568-2, residues 1-514, S451D/S453D/S456D/S462D)
Technique: protein-binding microarray
Molecule type: double-stranded DNA, one strand shown
Sample: in vitro
Concentration: 940 nM top
Setting: 60-bp whole probe
With: salmon DNA 0.4 mg/ml
Relative to: random background probes
Direction: higher = stronger binding
Constant ends, left off below: GCCTAGCAC … GTCTTGATTCGCTTGACGCTGCTG
| Oligonucleotide | fitted relative affinity |
| --- | --- |
| TTAGATATCAGACTGGACTAGTGCTAG | -0.596 z-score |
| TTAGGACTGCTACTGCTTTGGTGCTAG | -0.425 z-score |
| TTAGATATCAGCATCGATTAGTGCTAG | -0.0642 z-score |
| TTAGGTTTCGACTATCGGTCAGTGCTA | 9.42 z-score |
| CTGGACCCACTTCCAAATGGGTGCTAG | -0.144 z-score |
| GACGAAGTGGGGACTGGAGACGTGCTA | -0.126 z-score |
| TTAGTTTTCGGGTTTCGATTAGTGCTA | 6.54 z-score |
| TCAGATTTTCCCATGAGACTGTGCTAG | 0.67 z-score |
| GTAGGACTGGGGTATCGGTTAGTGCTA | 2.22 z-score |
| TCAAGGTCCCTTTTCATACTGTGCTAG | 0.245 z-score |
| TCATTTTTCTAACTAAAACTGTGCTAG | 0.708 z-score |
| GACCGTATCGACTATCGGGACGTGCTA | 2.53 z-score |
| GACGATTTCAGTATAGAGACGTGCTAG | 0.429 z-score |
| GACGATTCCAGTTTCGAGAAGTGCTAG | 4.09 z-score |
| GACGATATCAGTTTCGCGACGTGCTAG | 1.3 z-score |
| TTTTTTTTTGGAATGTCTTCGTGCTAG | 0.831 z-score |
| TTAGGTAGCCTACTGCTTTAGTGCTAG | -0.34 z-score |
| ACAAGTTTCTCCTTTCCAAAGTGCTAG | 3.78 z-score |
| TTAGAACTGGGGACAGGATTAGTGCTA | 0.189 z-score |

Set 4
Target: RNA binding protein fox-1 homolog 2, RRM domain, GST-SBP tag (RBFOX2, Homo sapiens, UniProt O43251-10, residues 100-194)
Technique: RNA Bind-n-Seq
Molecule type: RNA
Sample: in vitro
Concentration: 365 nM
Setting: natural RNA segment, single round, ends assumed
Relative to: no-protein control
Direction: higher = stronger binding
Constant ends, left off below: GGGAGUUCUACAGUCCGACGAUC … UGGAAUUCUCGGGUGCCAA
Construct (chain): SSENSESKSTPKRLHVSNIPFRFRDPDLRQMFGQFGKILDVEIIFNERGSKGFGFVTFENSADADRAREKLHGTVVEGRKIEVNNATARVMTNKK
| Oligonucleotide | RBNS enrichment (R) |
| --- | --- |
| UAAUUUUCUGUAUAUUUGGAAUAUUUGGGUUAAAAAUAAAACAGACUGGACUUUGUUACCUGACCUAUGAAAUGACUAAGCUACAGUUUGUUGAUAUACUUUUUCCAGUU | 0.671 |
| UCGUACUACAGAAAUUAAGAUGUUGUCUUGCGAUCCUUAAUAAAUGAAUGAUUUCCCUUUAAUACGGCUGAUGUAUUUUGUAUCCUGUUAUAUUGAGUGUUGGACUGAAG | 2.98 |
| CACCAUUCAAGAAGAGCACAGGCGCUGUUGGACAAGGCGCCCACCACUCUCACUCCCUCCAGGAACAAAGAGCAGCUUUUGAGCCCGGACUUGUUGCUGGUUUAAAGGUU | 0.493 |
| AAACUAGAGGGCGAGAGGGGCCCCUGAAAGUUCCUGUGACAGGGAUGCUCAGCAGGGAGGAGGGAAAGCCUGUAUAGCUAGCCUGACAUUUUGUUUCUUGUACAAUAUCU | 0.757 |
| GUUCAACAGGGCUCUUUGAUGACAGCUUUGGGAGGAUAAAUACGACUACGCACUUUAGAUAAGCCUCUUUUUAGUUCUUUCUGUUUCUCAAUAAUGGGCCAAAAAUACAC | 0.998 |
| CCGAGCAGUUAGAGAAAAGCCGCCUCACACUGUGUUUCACACUCGGGCAGUAAGUAUUGUAACGCCGGCCUCUUUUUGGGUCAUUUACUAGAUUAGGACUAUUACAUCCA | 0.264 |
| UGGAUGCUUUAUUUGGAUGGCCUGGCAACAUCACAUUUUCUGCAUCACCCUGAGCCCCAUUUGCUUCCCAGCCCUGGAGUUUUUACCCGGCUUUGCCUGCCACCUCUGCC | 1.19 |
| UAGUGCAAAAAGAAUUUCUUAAGGUUUAAAAAAUACACUUUUCAUUAUAGGAAAAAGAAGAUUCAGAGAAACAAAGGAAUGUAACCUUAUUGAUUACAUUUUUGGUGAUC | 0.756 |
| CAAGGCAAACUUUAUGUCCUCCUGGCAUGUUAUUGAUAACAGAGCCAGGAAGUCCAGUGUACAUUACAGAUUUUCUGGGAGAAAUAGUCCUUCCAGAGAAAGGAUUCCUU | 0.294 |
| GGAGACGCUGGAAGUUAAGCAAUACUUUAAUACUGUAAUAUGUUUGUUUUCUUUUUCUUUCUUUUUUUUCUACCAAAAAAAAGUAAGUAAACUAAAACACAAAAACAUAU | 0.601 |
| AAAAUUAAAGAACAAGAUGUGGUUUUUUGUUUAAGACGUUUUUAGUUUAUUUGUUGUUAAGUUAAACUGGAGAAAGUUUGUCAUCCUCAUUUUCAAACUGAAAACUAAUC | 0.994 |
| CCUGGCAGGAAUGGAACUCCAUCAGGGAACAGGGCAGCUCUGUUUGAAUGGGGUGAAAAACAGCAAAAUUAAUUCUUAGCAAGCUCCUUGUUCUCUACUGUUCACCGGGA | 0.6 |

Set 5
Target: Prothrombin, mature alpha-thrombin (F2, Homo sapiens, UniProt P00734)
Technique: aptamer microarray, sandwich
Molecule type: DNA with 2'F-ANA
Sample: in vitro
Concentration: 200 nM
Setting: whole 15-mer aptamer, many near background
With: Cy3 exosite-II aptamer, 400 nM
Direction: higher = stronger binding
Oligonucleotide: GGTTGGTGTGGTTGG
| Modification | mean fluorescence intensity |
| --- | --- |
| 2'F-ANA at 5 8 10 11 12 13 14 15 | 45.9 a.u. |
| 2'F-ANA at 3 5 6 7 9 10 | 56.5 a.u. |
| 2'F-ANA at 2 3 7 10 11 14 15 | 290 a.u. |
| 2'F-ANA at 3 6 9 10 | 462 a.u. |
| 2'F-ANA at 1 2 4 6 7 9 11 12 14 15 | 57 a.u. |
| 2'F-ANA at 3 5 6 10 14 15 | 45.3 a.u. |
| 2'F-ANA at 2 3 7 15 | 866 a.u. |
| 2'F-ANA at 2 3 6 8 9 10 12 14 | 293 a.u. |
| 2'F-ANA at 1 3 6 8 12 14 | 121 a.u. |
| 2'F-ANA at 1 4 5 7 9 11 12 13 14 | 80.5 a.u. |
| 2'F-ANA at 4 7 9 11 15 | 230 a.u. |
| 2'F-ANA at 2 3 4 8 13 | 581 a.u. |
| 2'F-ANA at 1 3 5 6 7 9 11 13 14 | 48.6 a.u. |
| 2'F-ANA at 2 4 5 8 10 14 | 143 a.u. |
| 2'F-ANA at 4 5 6 7 8 13 | 62.5 a.u. |
| 2'F-ANA at 2 3 4 5 7 9 13 14 | 49.2 a.u. |
| 2'F-ANA at 1 2 4 5 7 8 9 10 12 | 102 a.u. |
| 2'F-ANA at 2 6 7 9 10 11 12 14 | 82.4 a.u. |
| 2'F-ANA at 1 2 8 10 11 14 15 | 49.9 a.u. |
| 2'F-ANA at 3 5 8 9 10 13 14 15 | 57.5 a.u. |

Set 6
Target: Sal-like protein 4, full length isoform B (SALL4, Homo sapiens, UniProt Q9UJQ4-2, residues 1-616)
Technique: universal PBM
Molecule type: double-stranded DNA, one strand shown
Sample: in vitro
Concentration: not given
Setting: 8-mer, flanks averaged, mean of replicates
Direction: higher = stronger binding
Construct (chain): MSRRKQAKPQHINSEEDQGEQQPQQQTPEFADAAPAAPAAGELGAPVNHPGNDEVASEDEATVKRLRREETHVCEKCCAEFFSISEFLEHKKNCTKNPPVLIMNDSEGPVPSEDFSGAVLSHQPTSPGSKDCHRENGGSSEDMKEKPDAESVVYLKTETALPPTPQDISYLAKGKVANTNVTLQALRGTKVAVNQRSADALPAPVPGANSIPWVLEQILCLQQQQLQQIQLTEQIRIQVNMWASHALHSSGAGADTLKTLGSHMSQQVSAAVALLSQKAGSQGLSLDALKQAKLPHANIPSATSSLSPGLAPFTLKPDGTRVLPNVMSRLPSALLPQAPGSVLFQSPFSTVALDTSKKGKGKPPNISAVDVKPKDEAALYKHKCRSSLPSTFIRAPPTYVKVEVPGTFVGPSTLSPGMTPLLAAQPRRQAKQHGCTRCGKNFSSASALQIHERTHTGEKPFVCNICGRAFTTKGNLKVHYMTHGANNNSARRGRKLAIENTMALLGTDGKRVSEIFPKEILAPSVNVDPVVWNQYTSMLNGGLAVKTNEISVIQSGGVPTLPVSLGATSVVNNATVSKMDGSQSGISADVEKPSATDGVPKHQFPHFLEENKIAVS
| Oligonucleotide | E-score |
| --- | --- |
| ACTCAGGC | -0.0263 |
| AAATGAGA | 0.182 |
| CCATGAAC | -0.074 |
| AAGATCGA | 0.104 |
| CGTCTTTA | 0.102 |
| ACGGGCCG | -0.402 |
| GCATTTTA | 0.253 |
| ACAGAAGA | 0.0653 |
| AAGTCACA | 0.204 |
| GATCGCAA | 0.00737 |
| GTTATAAA | 0.377 |
| CTTATCTA | 0.272 |
| ATAGCTTC | 0.102 |
| GCTCAAGC | -0.109 |
| AAGGCATA | 0.222 |
| GCTGTTAA | 0.116 |

Some of these lines once more (set 6):
| Oligonucleotide | E-score |
| --- | --- |
| GATCGCAA | 0.00737 |
| ACGGGCCG | -0.402 |
| AAGTCACA | 0.204 |
| AAGGCATA | 0.222 |
| AAGATCGA | 0.104 |
| AAATGAGA | 0.182 |
| GTTATAAA | 0.377 |
| ATAGCTTC | 0.102 |
